Results collected from several papers.
Values joined by “and” are separate records of one study, mostly repeats; a detail may differ. ± marks the error that the study gave.
rep main protease: Replicase polyprotein 1ab, main protease (rep, Severe acute respiratory syndrome coronavirus 2, UniProt P0DTD1)
gag-pol K653R reverse transcriptase: Gag-Pol polyprotein, reverse transcriptase (gag-pol, Human immunodeficiency virus type 1 group M subtype B, UniProt P04585, K653R)

Structure (SMILES)	target or system	test	system	setting	how to read	endpoint	result
CN1CCCC1c1cc(C(=O)N2C[C@@H](F)C[C@H]2CNC(=O)c2cc3c(=O)[nH]ccn3n2)n[nH]1 (stereo partly shown)	rep main protease	inhibitor, high-throughput enzymatic	–	5 µM, mean of runs	–	inhibition	11.1%
CNC(=O)[C@@H](NC(=O)[C@H](CC(C)C)[C@H](O)C(=O)NO)C(C)(C)C	Daboia russelii venom proteases (SVMP)	protease activity, inhibitor	MP population	0.001 µM, together with: azocasein substrate	reference: venom alone	remaining activity	96.4% and 100% and 94.7%
CSCC[C@H](NC(=O)[C@H](CCCNC(=N)N)NC(=O)[C@H](Cc1ccccc1)NC(=O)[C@H](CS)NC(=O)[C@H](C)NC(=O)[C@@H](NC(=O)[C@@H](NC(=O)[C@H](C)NC(=O)[C@H](CCCNC(=N)N)NC(=O)[C@H](CCCNC(=N)N)NC(=O)[C@H](CCCNC(=N)N)NC(=O)[C@H](CCC(N)=O)NC(=O)[C@H](CCCCN)NC(=O)[C@H](CO)NC(=O)[C@H](CC(C)C)NC(=O)[C@H](CC(C)C)NC(=O)[C@H](CCCCN)NC(=O)[C@H](Cc1c[nH]cn1)NC(=O)[C@H](Cc1c[nH]c2ccccc12)NC(=O)[C@@H](NC(=O)[C@H](C)NC(=O)[C@H](CCCCN)NC(=O)[C@H](CCCCN)NC(=O)[C@H](CO)NC(=O)[C@H](CCCCN)NC(C)=O)C(C)C)C(C)C)C(C)C)C(=O)N[C@H](C(=O)N1CCC[C@H]1C(=O)N[C@@H](CC(C)C)C(=O)N[C@@H](Cc1ccc(O)cc1)C(=O)N[C@@H](CC(N)=O)C(N)=O)[C@@H](C)O	calmodulin 1-148 sites I and II	calcium binding, Phe fluorescence titration	–	12 µM, pH 7.4, 22 °C, together with: 6 µM calmodulin	–	apparent ΔG1	-8.4 ± 0.03 kcal/mol
Nc1nc2c(ncn2[C@H]2C[C@H](O)[C@@H](COP(=O)(O)OP(=O)(O)OP(=O)(O)O)O2)c(=O)[nH]1	gag-pol K653R reverse transcriptase	nucleotide misinsertion, steady-state kinetics	–	K66R mutant RT, together with: opposite template T	–	Km	14.2 ± 8.07 µM
CC[C@H](C)[C@H](NC(=O)[C@H](CC(C)C)NC(=O)[C@H](Cc1c[nH]c2ccccc12)NC(=O)[C@H](CCC(N)=O)NC(=O)[C@@H](NC(=O)[C@H](Cc1ccccc1)NC(=O)[C@H](C)NC(=O)[C@H](CCCCNC(=O)COCCOCCNC(=O)COCCOCCNC(=O)CC[C@H](NC(=O)CCCCCCCCCCCCCCCCCCC(=O)O)C(=O)O)NC(=O)[C@H](CCC(N)=O)NC(=O)[C@H](C)NC(=O)[C@@H](NC(=O)[C@H](CCCCN)NC(=O)[C@H](CC(=O)O)NC(=O)[C@H](CC(C)C)NC(=O)C(C)(C)NC(=O)[C@@H](NC(=O)[C@H](CO)NC(=O)[C@H](Cc1ccc(O)cc1)NC(=O)[C@H](CC(=O)O)NC(=O)[C@H](CO)NC(=O)[C@@H](NC(=O)[C@H](Cc1ccccc1)NC(=O)[C@@H](NC(=O)CNC(=O)[C@H](CCC(=O)O)NC(=O)C(C)(C)NC(=O)[C@@H](N)Cc1ccc(O)cc1)[C@@H](C)O)[C@@H](C)O)[C@@H](C)CC)[C@@H](C)CC)C(C)C)C(=O)N[C@@H](C)C(=O)NCC(=O)NCC(=O)N1CCC[C@H]1C(=O)N[C@@H](CO)C(=O)N[C@@H](CO)C(=O)NCC(=O)N[C@@H](C)C(=O)N1CCC[C@H]1C(=O)N1CCC[C@H]1C(=O)N1CCC[C@H]1C(=O)N[C@@H](CO)C(N)=O	–	measured: treatment-emergent medical device site pruritus	healthy subjects	1.5 mg, multiple ascending dose	–	subjects with adverse event	0%
CCN(CC)c1nc(C)cc(OP(=S)(OC)OC)n1	uncharacterized protein (Anopheles coluzzii, UniProt A0A6E8VQK1)	enzyme activity, inhibitor	Sf9 cell homogenate	0.04587 µM, 0.1667 h, together with: α-naphthyl acetate substrate	reference: no inhibitor	remaining activity	112%
Cc1cn([C@H]2C[C@H](O)[C@@H](COP(=O)(O)OP(=O)(O)OP(=O)(O)O)O2)c(=O)[nH]c1=O	gag-pol K653R reverse transcriptase	nucleotide misinsertion, steady-state kinetics	–	K66R mutant RT, together with: opposite template T	–	Km	888 ± 235 µM
c1cc2c(cc1O[C@H]1OC[C@H]3[C@@H]1CO[C@@H]3c1ccc3c(c1)OCO3)OCO2	rep main protease	reporter gene (mKate2), inhibitor	–	20 µM	–	inhibition	-0.515%
Nc1ncnc2c([C@@H]3N[C@H](CO)[C@@H](O)[C@H]3O)c[nH]c12	Marburg virus	viral replication	HeLa, Angola	1.6 µM	–	inhibition	22.6%
C=C(C)C1(O)OC(=O)C=C1OC (stereo not shown)	rep main protease	reporter gene (Gaussia luciferase), inhibitor	HEK293T	20 µM	–	inhibition	-2.27%
Nc1ncnc2c1ncn2[C@H]1C[C@H](O)[C@@H](COP(=O)(O)OP(=O)(O)OP(=O)(O)O)O1	Gag-Pol polyprotein, reverse transcriptase (gag-pol, Human immunodeficiency virus type 1 group M subtype B, UniProt P04585, K653T)	substrate	–	K66T mutant, together with: G:A mismatched primer template	–	kcat	0.0228 ± 0.0065 s⁻¹
Cn1cnc(Cn2c(=O)[nH]/c(=N\c3cc4cn(C)nc4cc3Cl)n(Cc3cc(F)c(F)cc3F)c2=O)n1	–	–	human, mild renal impairment	oral, 375 mg, decreased GFR TEAE, severe severity	–	patients with adverse event	0%
Cc1ccc(S(=O)(=O)N[C@@H](Cc2ccccc2)C(=O)CCl)cc1	rep main protease	reporter gene (mKate2), inhibitor	–	20 µM	–	inhibition	-0.64%

A few entries again:
Structure (SMILES)	target or system	test	system	setting	how to read	endpoint	result
CSCC[C@H](NC(=O)[C@H](CCCNC(=N)N)NC(=O)[C@H](Cc1ccccc1)NC(=O)[C@H](CS)NC(=O)[C@H](C)NC(=O)[C@@H](NC(=O)[C@@H](NC(=O)[C@H](C)NC(=O)[C@H](CCCNC(=N)N)NC(=O)[C@H](CCCNC(=N)N)NC(=O)[C@H](CCCNC(=N)N)NC(=O)[C@H](CCC(N)=O)NC(=O)[C@H](CCCCN)NC(=O)[C@H](CO)NC(=O)[C@H](CC(C)C)NC(=O)[C@H](CC(C)C)NC(=O)[C@H](CCCCN)NC(=O)[C@H](Cc1c[nH]cn1)NC(=O)[C@H](Cc1c[nH]c2ccccc12)NC(=O)[C@@H](NC(=O)[C@H](C)NC(=O)[C@H](CCCCN)NC(=O)[C@H](CCCCN)NC(=O)[C@H](CO)NC(=O)[C@H](CCCCN)NC(C)=O)C(C)C)C(C)C)C(C)C)C(=O)N[C@H](C(=O)N1CCC[C@H]1C(=O)N[C@@H](CC(C)C)C(=O)N[C@@H](Cc1ccc(O)cc1)C(=O)N[C@@H](CC(N)=O)C(N)=O)[C@@H](C)O	calmodulin 1-148 sites I and II	calcium binding, Phe fluorescence titration	–	12 µM, pH 7.4, 22 °C, together with: 6 µM calmodulin	–	apparent ΔG1	-8.4 ± 0.03 kcal/mol
Nc1nc2c(ncn2[C@H]2C[C@H](O)[C@@H](COP(=O)(O)OP(=O)(O)OP(=O)(O)O)O2)c(=O)[nH]1	gag-pol K653R reverse transcriptase	nucleotide misinsertion, steady-state kinetics	–	K66R mutant RT, together with: opposite template T	–	Km	14.2 ± 8.07 µM
